{"data": "Published values pooled from the literature", "note": "A part holds a random share of what one study measured. Changes are numbered by the printed parent chain."}
{"data": "Series 1", "target": "Ras GTPase-activating protein-binding protein 1, RRM domain (G3BP1, Homo sapiens, UniProt Q13283)", "method": "RNA Bind-n-Seq", "form": "RNA", "matrix": "in vitro", "tested at": "1 µM", "setting": "whole 134-nt RNA, ends assumed", "together with": "150 mM KCl", "baseline": "input library", "direction": "higher = stronger binding", "all sequences stand within": "GGGAGUUCUACAGUCCGACGAUC … UGGAAUUCUCGGGUGUCAAGG", "chain of UniProt Q13283 (whole entry, looked up)": "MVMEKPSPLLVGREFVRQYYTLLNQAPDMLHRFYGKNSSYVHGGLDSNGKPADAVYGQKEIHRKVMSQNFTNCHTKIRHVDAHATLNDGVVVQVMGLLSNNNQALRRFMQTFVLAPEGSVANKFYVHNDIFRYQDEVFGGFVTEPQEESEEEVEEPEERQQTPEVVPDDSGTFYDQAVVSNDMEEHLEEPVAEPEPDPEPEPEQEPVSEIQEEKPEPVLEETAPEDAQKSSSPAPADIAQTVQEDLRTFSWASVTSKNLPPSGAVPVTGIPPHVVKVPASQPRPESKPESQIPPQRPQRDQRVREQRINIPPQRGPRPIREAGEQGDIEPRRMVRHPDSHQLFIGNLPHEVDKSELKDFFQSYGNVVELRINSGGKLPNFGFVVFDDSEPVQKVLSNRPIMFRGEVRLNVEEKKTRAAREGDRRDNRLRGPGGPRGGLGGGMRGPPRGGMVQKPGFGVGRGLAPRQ"}
{"Sequence": "AAGUCCUGUGCUACACAUCGUAUGUACCGAAUCGGGGUGGGGAAAGGGGAAAGGGGAAAGUAUUAUGUUACGCCGUUCGGAUCUGCACUU", "log2 enrichment": 1.28}
{"Sequence": "CUGUGCUACACAUCGUAUGUACCGAAUCGGGGAAAAAAAGGGAAAAAAAGGAAAAAAAGGGAAAGUAUUAUGUUACGCCGUUCGGAUCUG", "log2 enrichment": 0.0344}
{"Sequence": "CUGUGCUACACAUCGUAUGUACCGAAUCGGGUUUUUUUGGGGUUUUUUUGGGGUUUUUUUGGAAAGUAUUAUGUUACGCCGUUCGGAUCU", "log2 enrichment": -0.143}
{"Sequence": "AAGUCCUGUGCUACACAUCGUAUGUACCGAAUCGGGAAAAGGAAAAGGGAAAAGGGGAAAGUAUUAUGUUACGCCGUUCGGAUCUGCACU", "log2 enrichment": 0.0276}
{"Sequence": "CCUGUGCUACACAUCGUAUGUACCGAAUCAAAUUUUUUUAAACCCCCCCAAACCCCCAAAAAAGUAUUAUGUUACGCCGUUCGGAUCUGC", "log2 enrichment": -1.14}
{"Sequence": "CACAGACAACACGCACCCACACAGACACAGAGGGAAGGGGUUGGGAUGGGGACAGGCUGCACAGCAGGGCGGGGUAGGACCCCAGCCCCU", "log2 enrichment": -0.0671}
{"Sequence": "GUCCUGUGCUACACAUCGUAUGUACCGAAUCGGGGUUUUUGGGGAGGGGUUUUUGGGGAAAGUAUUAUGUUACGCCGUUCGGAUCUGCAC", "log2 enrichment": 0.906}
{"Sequence": "AGUCCUGUGCUACACAUCGUAUGUACCGAAUCGUGUGUGUGUGUGUGUGUGUGUGUGUAAAGUAUUAUGUUACGCCGUUCGGAUCUGCAC", "log2 enrichment": 0.118}
{"data": "Series 2", "target": "CCNB1, cyclin fold, Cln2 fusion (human)", "method": "yeast growth competition, sequencing", "matrix": "yeast", "setting": "strong parent motif", "baseline": "not given", "direction": "higher = stronger binding", "starting sequence": "PKMYT1 docking peptide (human); SFEPRNLLSLFED"}
{"Variant": "L10I", "normalised enrichment score": 1.49}
{"Variant": "L8F", "normalised enrichment score": 1.33}
{"Variant": "R5P", "normalised enrichment score": -0.28}
{"Variant": "F2W", "normalised enrichment score": -0.804}
{"Variant": "E3M", "normalised enrichment score": 2.05}
{"data": "Series 3", "target": "ABI1, truncated, D143A, DHFR fusion (Arabidopsis thaliana)", "method": "DHFR PCA, deep sequencing", "matrix": "yeast", "setting": "methotrexate growth selection, single substitutions", "together with": "(+)-ABA 200 µM", "baseline": "wild-type fitted maximum", "direction": "higher = stronger binding", "starting sequence": "PYL1, truncated, DHFR fusion (Arabidopsis thaliana); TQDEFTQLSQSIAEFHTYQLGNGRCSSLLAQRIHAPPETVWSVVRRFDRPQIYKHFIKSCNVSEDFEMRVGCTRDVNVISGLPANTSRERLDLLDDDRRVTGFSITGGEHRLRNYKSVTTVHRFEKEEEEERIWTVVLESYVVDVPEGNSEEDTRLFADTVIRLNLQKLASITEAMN"}
{"Variant": "S87L", "relative binding score": "7.4%"}
{"Variant": "G108Y", "relative binding score": "21.5%"}
{"Variant": "G23W", "relative binding score": "78.9%"}
{"Variant": "A13E", "relative binding score": "103%"}
{"Variant": "V142K", "relative binding score": "76.8%"}
{"data": "Further values, each from its own experiment"}
{"Substance": "PhoQ, residues 284 288 289 292 302 303 TYGVAM", "target": "PhoP, residues 12 14 15 18 19 NMSSL (Escherichia coli, UniProt P23836)", "test": "Sort-seq, refers to: YFP reporter", "system": "E. coli", "setting": "PhoQ-PhoP variant library, together with: 10 µM Mg2+", "how to read": "baseline: high Mg2+ state, higher = stronger signaling", "endpoint": "fold induction", "value": 12.4}
{"note": "Repeated from above (series 1):"}
{"Sequence": "CCUGUGCUACACAUCGUAUGUACCGAAUCAAAUUUUUUUAAACCCCCCCAAACCCCCAAAAAAGUAUUAUGUUACGCCGUUCGGAUCUGC", "log2 enrichment": -1.14}
